Published values gathered from unrelated publications.
A part holds a random share of what one study measured.

Sample 1
Target: RING finger protein unkempt homolog, zinc fingers 1-6, SBP tag (UNK, Homo sapiens, UniProt Q9C0B0, residues 30-357)
Chain of UniProt Q9C0B0 (30-357, looked up): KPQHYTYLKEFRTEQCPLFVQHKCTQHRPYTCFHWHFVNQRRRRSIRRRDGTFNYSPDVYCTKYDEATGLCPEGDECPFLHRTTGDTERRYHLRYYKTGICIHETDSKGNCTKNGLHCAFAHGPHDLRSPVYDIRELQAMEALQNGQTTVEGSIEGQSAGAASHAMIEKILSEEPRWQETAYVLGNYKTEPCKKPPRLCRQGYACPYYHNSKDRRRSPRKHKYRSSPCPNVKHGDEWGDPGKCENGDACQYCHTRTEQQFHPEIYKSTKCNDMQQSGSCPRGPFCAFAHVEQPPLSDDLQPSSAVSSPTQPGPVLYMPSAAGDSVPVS
Method: RNA Bind-n-Seq
Molecule type: RNA
Medium: in vitro
Tested at: 100 nM
Setting: RNA with constant flanks, vertebrate orthologous sites, ends assumed
Relative to: input RNA pool
Reading: higher = stronger binding
Quantity: bound/input enrichment
Shared flanks, not repeated: GGGAGUUCUACAGUCCGACGAUC … CAACAGAGGAUUGAGCAUCA
CACAUCUGGUGAUAUUUGGCCUGGCCUUUCAGCAUAUGAUAAUAGUCCCAGAUCACCUCAUAGUCCUUCACCAAUUGCUACACCACCUAGUCAGAGUUCAUCUUGCUCUGAUGCCCCCAU: 1.06 ratio
AUAUUGUAUGUAGAGACAAAUUUUCAUUGACCCCAUUGUGAAAUUCCCUAGCAAUUUAUUUAGAAUCUUAAUUUUUCUAAUUGAAGUUCACUGUGUUAGUCAUUUUUAGUAUAAUUAAAA: 3.78 ratio
UGGUGACGUGCUUGCUGUCUGUCCCCCGCGGGGGCCCGGCCGGCUGUCUCUCGGACGUGUGACCUGUCGCACAGGAAGAGGUGUGCCCAGGUCAUCCUGCUGAAUUCCUCUCUGAGUCUG: 0.627 ratio
GUCCUCUGAUUGGAUGAAGACUGUUCCGAGUUAUAACCAAACAAAUAGCUCCAUGGACUUCAGAAAUUAUAUGAUGAGAGAUGAGAACCUGGAACCACUGCCCAAAAACUGGGAAAUGGC: 0.293 ratio
CCCACCCAGCUCACACCAGCAGCUUGCUCUCACACGUGCACAGCCUGCAAAGGAACAGUCUCGAGGGAUUUUUAUUUUAAUUUAAAACCUGCUUUUCCCAAAACUGAUCAAGAAGCUACG: 0.496 ratio
AAGGUGGGAGAGGUACCUUAAACUGGAAUAAUAAGAAAGGGAAACAGAAUGACGCUGGUACAGAAAAAUCAGAAGGAAAGCUUUGCAAAACCGUCCAACAGAACUGCAGUACAAGAUGCA: 0.415 ratio
UAUUGUAUGUAGAGAAAAAUUUUCAUUGACUCCCAUUGUGGAAUUCCCUAGCAAUUUAUUUAGACUUAAUUUUUUAAAUUCAAGCUUACUGUAUUAGUCAUUUUUAGCCCAUAAUUAAAA: 10.9 ratio
AAUGCAAGAACUCUUACAGUCUUAGGUGUGAUAACGGCAGAUCUGAACUGUAAGAGUUAUUAGUGCAGGGUUUUUUUUUUUGUUGUUGUUGUUGUUGGUUUUUUUGGGGGGGUACAAGGC: 2.56 ratio
CCCAUGGCUGCUUUGUAUCACCUCAGUGAGUUACAGUCCCCCUUGGCAUUUAGUUGGUACUAGAGCCAGUCAUCCUUAACAAAUCUUUUCACAUUUUAUUUCUUUCACACGUAGUCAUCU: 2.79 ratio
GUAUUAGUGUCAUACCAGCAUAUUAACCUCCGUCUGUGCACAGCUUCCGACGUUACCGUCUAGUUAGGUUUUUAUUUAAAAGAUGAAAAAACUGCUUUUCCCAAGACGUUUUUUAAAAAC: 1.91 ratio
GGGACGCUUUGAUGUAAAGAUUGAAGUUAAGAGCUGAUCACAAGCACAAAUCUUUCCCACUAGCCAUUUAAUAAGUUAAAAAGAUACAAAAACCUACUAGUCUUGAACAAACUGUCAUAC: 2.36 ratio

Sample 2
Target: PABPC1L2, full length, GST fusion (mouse, UniProt A0ABA7IW68)
Method: RNAcompete
Molecule type: RNA
Medium: in vitro
Tested at: 20 nM
Setting: 7-mer, probes averaged, single round
Relative to: mean of 7-mers
Reading: higher = stronger binding
Quantity: 7-mer Z-score
Construct (chain): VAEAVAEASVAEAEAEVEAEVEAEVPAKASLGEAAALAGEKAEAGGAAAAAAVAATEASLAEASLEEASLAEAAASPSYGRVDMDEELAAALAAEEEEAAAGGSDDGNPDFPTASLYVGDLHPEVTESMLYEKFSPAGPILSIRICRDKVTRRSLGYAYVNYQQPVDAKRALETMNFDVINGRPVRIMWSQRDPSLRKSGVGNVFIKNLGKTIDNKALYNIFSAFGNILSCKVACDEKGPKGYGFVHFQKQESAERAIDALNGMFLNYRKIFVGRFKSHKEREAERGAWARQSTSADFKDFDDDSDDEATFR
ACGACAG: 0.138
AGGUAGA: 0.0225
UCUAUUU: -0.302
GCCUGGG: -0.11
UAGAAAU: 1.45
UGUUACU: -0.412
CCCGAUG: -0.26
AGUUCGG: -0.213
GUGGGCG: 0.0913
AGCUAGC: -0.117
CUGGAGU: -0.17
AGCAUCG: -0.113
AUGUAAC: -0.0754
AGGCUAC: -0.0101
GGUUGUA: -0.304
CUGCUUA: -0.36
GUGCAAG: -0.0373

Sample 3
Target: Histone acetyltransferase KAT6A, winged helix 1, GST fusion (KAT6A, Homo sapiens, UniProt Q92794, residues 1-85)
Method: protein binding microarray
Molecule type: double-stranded DNA, one strand shown
Medium: in vitro
Tested at: not given
Setting: 8-mer, flanks averaged, mean of 2 arrays, mostly near background
Relative to: not given
Reading: higher = stronger binding
Quantity: E-score
Construct (chain): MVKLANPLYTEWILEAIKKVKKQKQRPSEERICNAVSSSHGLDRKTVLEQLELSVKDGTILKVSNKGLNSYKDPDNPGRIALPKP
AGAAGAGA: -0.134
AGCCTACC: -0.0908
CGATAGAG: -0.175
TACAAAAA: -0.000625
CTCGACCA: -0.144
CGCTGTTC: 0.151
CGGAGTCC: 0.0365
ACCGTAAA: 0.161
GGTCGAAC: 0.0884
CAAGATGC: -0.221
TCCGATAA: -0.115
ACACTCAA: -0.15
ATTCAGCG: 0.129
CCTACACA: -0.107
CAAATGCC: 0.00303
TTCTACAA: -0.0147
GCGTAAAA: 0.101
CACTGTCA: -0.217
GCAGTCCC: -0.0249
GTCCTACA: -0.00857
CTTATAAG: 0.0383
GGGGAGCA: 0.0385
AGAATCAC: 0.0354

Sample 4
Target: Phosphate system positive regulatory protein PHO4, full length, GST-tagged (PHO4, Saccharomyces cerevisiae, UniProt P07270, residues 1-312)
Method: competition protein-binding microarray
Molecule type: double-stranded DNA, one strand shown
Medium: in vitro
Tested at: 2 µM
Setting: whole 60-bp probe, lowest competitor level
With: Cbf1 competitor, 0.05 µM
Reading: higher = stronger binding
Quantity: fluorescence intensity
Shared flanks, not repeated: … GTCTTGATTCGCTTGACGCTGCTG
Residues (chain): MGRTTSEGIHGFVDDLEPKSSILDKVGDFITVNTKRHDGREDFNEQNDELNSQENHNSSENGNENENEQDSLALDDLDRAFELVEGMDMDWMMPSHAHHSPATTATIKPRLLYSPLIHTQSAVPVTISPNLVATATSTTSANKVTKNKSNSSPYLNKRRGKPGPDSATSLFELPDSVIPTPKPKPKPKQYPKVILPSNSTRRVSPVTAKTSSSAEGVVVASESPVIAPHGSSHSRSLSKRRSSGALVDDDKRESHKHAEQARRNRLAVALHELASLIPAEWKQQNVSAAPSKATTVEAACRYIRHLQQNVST
CTGCAAGGAAGTTTAAGCGTGGGTAACTTTGCTAGG: 7510 a.u.
CGGGGTTAAGTTTGTCGGGTGGGTGGCTTGCAGCAG: 3990 a.u.
TTTAAAAGGAGCCATCACGTTCTGCAGCACTTGAAT: 11300 a.u.
CCTGGCACTCGCTATTTCGTGACGGCGTTCCAGGAC: 4720 a.u.
CTGTCGTCGTAGGTTCTCGTGGTGATGACCTTACTA: 7960 a.u.
AAAGCGGTAATTTTTCACGTGCGCTCACATATCTAT: 13400 a.u.
CTTCTGTAAATTTGTGCTGTGGGTGGACGCGCCCCG: 5000 a.u.
GGATGTTTTCCAGATGTCGTGATGGTTTCACGAAGC: 5140 a.u.
ATATCCCGCGCTTTTCCCGTGGTGAATACTGTGTGT: 6090 a.u.
CCGACCTTAGAATTTCACGTGTAGGTACACTCAAAA: 10300 a.u.
TTATCGTTGTGTAACCACGTAGAGAATCCCTTATAA: 5140 a.u.
CTAACGAAGGTTTGCGCGGTGGGTGACAAGCCAAGT: 3800 a.u.
AAGGATAGCACTTTGATCATGCAATTATTAAGGGAC: 5210 a.u.
GTCTGAAGTAAAAAGCACGATGATCGTAGTCCACTT: 8250 a.u.
TCCGCGCCGTATGTGTGTGTGACAGTGGAGTTTGCA: 6450 a.u.
GCTTTCGTACTGCTCCAGGTGTGGCTTGATGTCCTA: 4000 a.u.
CTTCTGTAAATTTGGCCCGTGGGTGGACGCGCCCCG: 8520 a.u.
CTTCTGTAAATTTGAGTTGTGGGTGGACGCGCCCCG: 4270 a.u.
TCTAGGGATGAGCTGAACGTGCAAATGATACCAACC: 10700 a.u.
AAAACATCAAAACTACACGTTTGGGTGGTACGGAGG: 9270 a.u.
AAAGCGGTAATTTGCCGCGTGGGTGCAGATATCTAT: 11000 a.u.
CTTCTGTAAATTTGTAAGGTGGGTGGACGCGCCCCG: 4850 a.u.
GTCTTGTCTCATTGGCAGGTGGGTGTCCCCACTTCA: 6650 a.u.

Excerpt of the above (sample 2):
UAGAAAU: 1.45
UGUUACU: -0.412
CCCGAUG: -0.26
AGUUCGG: -0.213
GUGGGCG: 0.0913
AGCUAGC: -0.117
CUGGAGU: -0.17
AGCAUCG: -0.113
AUGUAAC: -0.0754
AGGCUAC: -0.0101
GGUUGUA: -0.304
